Experimental data from different studies.
Lines come from different studies, so protocols differ. ± marks the error that the study gave.

Compound | assay | test system | conditions | scale | endpoint | result
N=C(N)NCCC[C@@H]1NC(=O)[C@H](CCCCNC(=O)CNC(=O)CNC(=O)CNC(=O)CC[C@H](NC(=O)CCOCCOCCOCCOCCNC(=O)CC[C@H](NC(=O)CN2CCN(CC(=O)O)CCN(CC(=O)O)CCN(CC(=O)O)CC2)C(=O)NCCOCCOCCOCCOCCC(=O)N[C@@H](CCC(=O)NCC(=O)NCC(=O)NCC(=O)NCCCC[C@@H]2NC(=O)[C@@H](Cc3ccccc3)NC(=O)[C@H](CC(=O)O)NC(=O)CNC(=O)[C@H](CCCNC(=N)N)NC2=O)C(=O)NCC(=O)NCC(=O)NCC(=O)NCCCC[C@@H]2NC(=O)[C@@H](Cc3ccccc3)NC(=O)[C@H](CC(=O)O)NC(=O)CNC(=O)[C@H](CCCNC(=N)N)NC2=O)C(=O)NCC(=O)NCC(=O)NCC(=O)NCCCC[C@@H]2NC(=O)[C@@H](Cc3ccccc3)NC(=O)[C@H](CC(=O)O)NC(=O)CNC(=O)[C@H](CCCNC(=N)N)NC2=O)NC(=O)[C@@H](Cc2ccccc2)NC(=O)[C@H](CC(=O)O)NC(=O)CNC1=O [indium-111 labelled] |  | female athymic nude mice, intestine | intravenous, 3 µCi, 24 h, U-87 MG glioma xenograft |  | tissue uptake | 3.78 ± 1.23 %ID/g
C=Cc1c(C)c2cc3nc(c4c5[nH]c(cc6nc(cc1[nH]2)C(C)=C6CC)c(C)c5C(=O)C4)[C@@H](CCC(=O)NCC(=O)N1CCC[C@H]1C(=O)N[C@@H](CC(C)C)C(=O)NCC(=O)N[C@@H](Cc1ccccc1)C(=O)N[C@@H](CCCNC(=N)N)C(=O)N[C@H](C(=O)NCC(=O)N[C@@H](CCCCN)C(N)=O)C(C)C)[C@@H]3C |  | C57BL/6J mouse, DMM osteoarthritis model, knee articular cartilage | intra-articular, 6 h | reference: cartilage thickness | penetration depth | ~50%
N=C(N)NCCC[C@@H]1NC(=O)[C@H](CCCCNC(=O)CC[C@H](NC(=O)CCOCCOCCOCCOCCNC(=O)CN2CCN(CC(=O)O)CCN(CC(=O)O)CCN(CC(=O)O)CC2)C(=O)NCCCC[C@@H]2NC(=O)[C@@H](Cc3ccccc3)NC(=O)[C@H](CC(=O)O)NC(=O)CNC(=O)[C@H](CCCNC(=N)N)NC2=O)NC(=O)[C@@H](Cc2ccccc2)NC(=O)[C@H](CC(=O)O)NC(=O)CNC1=O [indium-111 labelled] |  | female athymic nude mice, brain | intravenous, 3 µCi, 1 h, U-87 MG glioma xenograft |  | tissue uptake | 0.1 ± 0.02 %ID/g
N=C(N)NCCC[C@@H]1NC(=O)[C@H](CCCCn2cc(CNC(=O)CN3CCN(CC(=O)O)CCN(CC(=O)O)CCN(CC(=O)O)CC3)nn2)NC(=O)[C@@H](Cc2ccccc2)NC(=O)[C@H](CC(=O)O)NC(=O)CNC1=O |  | octanol/ammonium acetate buffer | pH 6.8, 64Cu-labelled |  | logD | -3.3
N=C(N)NCCC[C@@H]1NC(=O)[C@H](CCCCNC(=O)CCOCCOCCOCCOCCNC(=O)CC[C@H](NC(=O)CCOCCOCCOCCOCCNC(=O)CC[C@H](NC(=O)CN2CCN(CC(=O)O)CCN(CC(=O)O)CCN(CC(=O)O)CC2)C(=O)NCCOCCOCCOCCOCCC(=O)N[C@@H](CCC(=O)NCCOCCOCCOCCOCCC(=O)NCCCC[C@@H]2NC(=O)[C@@H](Cc3ccccc3)NC(=O)[C@H](CC(=O)O)NC(=O)CNC(=O)[C@H](CCCNC(=N)N)NC2=O)C(=O)NCCOCCOCCOCCOCCC(=O)NCCCC[C@@H]2NC(=O)[C@@H](Cc3ccccc3)NC(=O)[C@H](CC(=O)O)NC(=O)CNC(=O)[C@H](CCCNC(=N)N)NC2=O)C(=O)NCCOCCOCCOCCOCCC(=O)NCCCC[C@@H]2NC(=O)[C@@H](Cc3ccccc3)NC(=O)[C@H](CC(=O)O)NC(=O)CNC(=O)[C@H](CCCNC(=N)N)NC2=O)NC(=O)[C@@H](Cc2ccccc2)NC(=O)[C@H](CC(=O)O)NC(=O)CNC1=O [indium-111 labelled] |  | athymic nude mice, female, U-87 MG glioma xenograft, U-87 MG tumour | intravenous, 3 µCi, 0.5 h |  | tissue uptake | 10.5 ± 1.83 %ID/g
N=C(N)NCCC[C@@H]1NC(=O)[C@H](CCCCNC(=O)CCOCCOCCOCCOCCNC(=O)CC[C@H](NC(=O)CCOCCOCCOCCOCCNC(=O)c2ccc(NN)nc2)C(=O)NCCOCCOCCOCCOCCC(=O)NCCCC[C@@H]2NC(=O)[C@@H](Cc3ccccc3)NC(=O)[C@H](CC(=O)O)NC(=O)CNC(=O)[C@H](CCCNC(=N)N)NC2=O)NC(=O)[C@@H](Cc2ccccc2)NC(=O)[C@H](CC(=O)O)NC(=O)CNC1=O [technetium-99m labelled] |  | female athymic nude mice, U-87 MG glioma xenograft, tumour and muscle | intravenous, 2.5 µCi, 60 min | reference: tumour over muscle | tissue-to-tissue ratio | 13.7 ± 2.21
CCCC[C@H](NC(=O)CNC(=O)CNC(=O)c1ccc(NN)nc1)C(=O)N[C@H]1CC(=O)NCCCC[C@@H](C(N)=O)NC(=O)[C@H](Cc2c[nH]c3ccccc23)NC(=O)[C@H](CCCNC(=N)N)NC(=O)[C@@H](Cc2ccccc2)NC(=O)[C@H](Cc2c[nH]cn2)NC1=O [technetium-99m labelled] |  | C57 mouse, B16/F1 melanoma, stomach | 2 h, added: NDP-MSH 6.07 nmol blockade |  | uptake | 0.49 ± 0.22 %ID/g
CC(C)C[C@H](NC(=O)[C@@H]1CCCN1C(=O)[C@H](CCCCN)NC(=O)[C@@H](N)CO)C(=O)N1CCC[C@H]1C(=O)N[C@@H](CCC(=O)O)C(=O)N[C@H](C(=O)N[C@H](C(=O)N[C@@H](CC(=O)O)C(=O)N[C@@H](CCC(=O)O)C(=O)N[C@@H](Cc1ccc(O)cc1)C(=O)N[C@@H](Cc1cn(CCOCCOCCOCCNC(=O)CCc2ccc(O)c(CN(CCN(CC(=O)O)Cc3cc(CCC(=O)NCCCC[C@H](NC(=O)N[C@@H](CCC(=O)O)C(=O)O)C(=O)O)ccc3O)CC(=O)O)c2)nn1)C(=O)O)[C@@H](C)O)C(C)C [gallium-68 labelled] |  | NMRI nu/nu mice, LNCaP tumour, skin | 10 MBq, high molar activity |  | standardized uptake value | 0.13 g/g
CC(C)C[C@@H]1NC(=O)[C@H](C(C)C)NC(=O)[C@H](CO)NC(=O)CNC(=O)CNC(=O)[C@H](CCCNC(=N)N)NC(=O)[C@@H]2CCCN2C(=O)[C@@H](NC(=O)CC[C@H](NC(=O)c2ccc(N(C)Cc3cnc4nc(N)nc(N)c4n3)cc2)C(=O)O)C(C)(C)SSC[C@@H](C(=O)O)NC(=O)CNC(=O)[C@H]([C@@H](C)O)NC(=O)[C@H](C(C)C)NC1=O | HPLC | Phosphate buffer | pH 7.0, 70 °C |  | degradation rate constant | 0.0012 h⁻¹
CSCC[C@H](NC(=O)[C@H](CC(C)C)NC(=O)[C@H](Cc1c[nH]cn1)NC(=O)CNC(=O)[C@@H](NC(=O)[C@H](C)NC(=O)[C@H](Cc1c[nH]c2ccccc12)NC(=O)[C@H](CCC(N)=O)NC(=O)CCCCCNC(=O)CN1CCN(CC(=O)O)CCN(CC(=O)O)CC1)C(C)C)C(N)=O [gallium-68 labelled] | microPET imaging | nude mouse PC-3 xenograft, PC-3 tumour | intravenous, 3.7 MBq, 15 min |  | mean tumour uptake | 4.4 ± 0.29 %ID/g
N=C(N)NCCC[C@@H]1NC(=O)[C@H](CCCCNC(=O)CC[C@H](NC(=O)CCOCCOCCOCCOCCNC(=O)CC[C@H](NC(=O)CN2CCN(CC(=O)O)CCN(CC(=O)O)CCN(CC(=O)O)CC2)C(=O)NCCOCCOCCOCCOCCC(=O)N[C@@H](CCC(=O)NCCCC[C@@H]2NC(=O)[C@@H](Cc3ccccc3)NC(=O)[C@H](CC(=O)O)NC(=O)CNC(=O)[C@H](CCCNC(=N)N)NC2=O)C(=O)NCCCC[C@@H]2NC(=O)[C@@H](Cc3ccccc3)NC(=O)[C@H](CC(=O)O)NC(=O)CNC(=O)[C@H](CCCNC(=N)N)NC2=O)C(=O)NCCCC[C@@H]2NC(=O)[C@@H](Cc3ccccc3)NC(=O)[C@H](CC(=O)O)NC(=O)CNC(=O)[C@H](CCCNC(=N)N)NC2=O)NC(=O)[C@@H](Cc2ccccc2)NC(=O)[C@H](CC(=O)O)NC(=O)CNC1=O [indium-111 labelled] |  | athymic nude mice, female, U-87 MG glioma xenograft, tumour and liver | intravenous, 4 h | reference: tumour over liver | tumour to tissue ratio | 2.93 ± 1.82
CCCC[C@H](NC(=O)CCCCCCCNC(=O)c1ccc(NN)nc1)C(=O)N[C@H]1CC(=O)NCCCC[C@@H](C(N)=O)NC(=O)[C@H](Cc2c[nH]c3ccccc23)NC(=O)[C@H](CCCNC(=N)N)NC(=O)[C@@H](Cc2ccccc2)NC(=O)[C@H](Cc2c[nH]cn2)NC1=O [technetium-99m labelled] |  | C57 mouse, B16/F1 melanoma, skin | intravenous, 0.5 h |  | uptake | 3.62 ± 0.35 %ID/g
CSCC[C@H](NC(=O)[C@H](CC(C)C)NC(=O)[C@H](Cc1c[nH]cn1)NC(=O)CNC(=O)[C@@H](NC(=O)[C@H](C)NC(=O)[C@H](Cc1c[nH]c2ccccc12)NC(=O)[C@H](CCC(N)=O)NC(=O)CCCCCNC(=O)CNC(=O)CNC(=O)CNC(=O)CSC(C)=O)C(C)C)C(N)=O [technetium-99m labelled] |  | healthy Swiss mouse, small intestine, contents removed | intravenous, 18.5 MBq, 30 min |  | tissue uptake | 14.3 ± 2.58 %ID/g

Excerpt of the above:
Compound | assay | test system | conditions | scale | endpoint | result
N=C(N)NCCC[C@@H]1NC(=O)[C@H](CCCCn2cc(CNC(=O)CN3CCN(CC(=O)O)CCN(CC(=O)O)CCN(CC(=O)O)CC3)nn2)NC(=O)[C@@H](Cc2ccccc2)NC(=O)[C@H](CC(=O)O)NC(=O)CNC1=O |  | octanol/ammonium acetate buffer | pH 6.8, 64Cu-labelled |  | logD | -3.3
CC(C)C[C@H](NC(=O)[C@@H]1CCCN1C(=O)[C@H](CCCCN)NC(=O)[C@@H](N)CO)C(=O)N1CCC[C@H]1C(=O)N[C@@H](CCC(=O)O)C(=O)N[C@H](C(=O)N[C@H](C(=O)N[C@@H](CC(=O)O)C(=O)N[C@@H](CCC(=O)O)C(=O)N[C@@H](Cc1ccc(O)cc1)C(=O)N[C@@H](Cc1cn(CCOCCOCCOCCNC(=O)CCc2ccc(O)c(CN(CCN(CC(=O)O)Cc3cc(CCC(=O)NCCCC[C@H](NC(=O)N[C@@H](CCC(=O)O)C(=O)O)C(=O)O)ccc3O)CC(=O)O)c2)nn1)C(=O)O)[C@@H](C)O)C(C)C [gallium-68 labelled] |  | NMRI nu/nu mice, LNCaP tumour, skin | 10 MBq, high molar activity |  | standardized uptake value | 0.13 g/g
